# Measurements of several laboratories.
# Parts stem from different laboratories: compare values within a part only. Substitutions count along the parent as printed.

# Block 1
# Target: Fragile X messenger ribonucleoprotein 1, C-terminal low-complexity region (Fmr1, Mus musculus, UniProt P35922)
# Technique: RNA Bind-n-Seq
# Form: RNA
# Sample: in vitro
# Concentration: 200 nM
# Notes: whole 134-nt RNA, ends assumed
# Added: 150 mM KCl
# Baseline: input library
# Direction: higher = stronger binding
# All sequences stand within: GGGAGUUCUACAGUCCGACGAUC … UGGAAUUCUCGGGUGUCAAGG
Oligonucleotide,log2 enrichment
CCUGUGCUACACAUCGUAUGUACCGAAUCGGAAAAAAGGGAAAAAAGGGGAAAAAAGGGGAAAGUAUUAUGUUACGCCGUUCGGAUCUGC,-0.538
CCUCAAGUCCUGUGCUACACAUCGUAUGUACCGAAUCGGUGGAAAAAGGUGGAAAGUAUUAUGUUACGCCGUUCGGAUCUGCACUUCCAG,0.183
GGCGGAGCAGCUGAUGGAGGAGUGGAACGAAGACCUAGACGGCAUGGAGGGUUUCGUGCUGGAGGGCAAGAAGUUUGCGCGGCUGCCGGA,-0.993
CUCAAGUCCUGUGCUACACAUCGUAUGUACCGAAUCGGUUUUUUUGGAGGAGGAAAGUAUUAUGUUACGCCGUUCGGAUCUGCACUUCCA,-0.144
GUCCUGUGCUACACAUCGUAUGUACCGAAUCGGGAAAAAAAGGGAAAAAGGGUUUGGGAAAGUAUUAUGUUACGCCGUUCGGAUCUGCAC,-0.445
UUAGAUGAGUGACCGAGGAGGUGGCGUUCCUUUGAGGAAAAUUGACAGACUUUUCAACUACAUGUAUUCAACUGCACCAAGACCUCGUGU,-0.449
GUCCUGUGCUACACAUCGUAUGUACCGAAUCGGCCCCCGGGCCCCCGGGGCCCCCGGGGAAAGUAUUAUGUUACGCCGUUCGGAUCUGCA,-0.93
UCAAGUCCUGUGCUACACAUCGUAUGUACCGAAUCGGAAAGGAGGAAAAAAAGGAAAGUAUUAUGUUACGCCGUUCGGAUCUGCACUUCC,-0.524
UCCUCAAGUCCUGUGCUACACAUCGUAUGUACCGAAUCGGAGGUUUGGAGGAAAGUAUUAUGUUACGCCGUUCGGAUCUGCACUUCCAGC,-0.638
CAAGUCCUGUGCUACACAUCGUAUGUACCGAAUCGGAAAAAAAGGAAAGGUUUGGAAAGUAUUAUGUUACGCCGUUCGGAUCUGCACUUC,-1.22
UGGGAGGUGGAUUUUGUUUAUUUUUUUAGCUCAUUUCCAGGGGUGGGAAUUUUUUUUUAAUAUGUGUCAUGAAUAAAGUUGUUUUUUAAA,0.266
UCCUGUGCUACACAUCGUAUGUACCGAAUCGGGGUUUGGGGUUUUUUUGGGGUUUGGGGAAAGUAUUAUGUUACGCCGUUCGGAUCUGCA,1.12
UGACUUUAGAGGAGGAUCUGAUGGAUAUGGCAGUGGACGUGGAUUUGGGGAUGGCUAUAAUGGGUAUGGAGGAGGACCUGGAGGUGGCAA,0.324
UGGAGGAGCCAUAGAAUAUUAAGGAUGAAUUCAGGAAGGCCUGAGACCAUGGAAAACUUGCCUGCUCUCUACACUAUUUUCCAAGGAGAG,-0.747

# Block 2
# Target: CCNA1, cyclin fold, Cln2 fusion (human)
# Technique: yeast growth competition, sequencing
# Sample: yeast
# Notes: weak parent motif
# Baseline: not given
# Direction: higher = stronger binding
# Starting sequence: PPP1R3F docking peptide (human); VAPRRVLFADEAL; partner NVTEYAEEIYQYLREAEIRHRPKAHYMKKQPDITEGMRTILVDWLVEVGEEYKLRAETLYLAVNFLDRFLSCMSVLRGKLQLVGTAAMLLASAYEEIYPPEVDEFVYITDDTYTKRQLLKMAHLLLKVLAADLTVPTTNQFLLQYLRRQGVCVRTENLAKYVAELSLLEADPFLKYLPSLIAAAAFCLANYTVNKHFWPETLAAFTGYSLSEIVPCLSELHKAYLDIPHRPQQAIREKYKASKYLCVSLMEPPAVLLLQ
Variant,normalised enrichment score
R5A,0.506
L13A,0.115
D10A,0.588
R5A L7A,0.131
R5K,0.0632
F8L,0.353
P3A,0.649
R4A,0.35

# Block 3
# Target: RNA binding protein fox-1 homolog 2, RRM domain, GST-SBP tag (RBFOX2, Homo sapiens, UniProt O43251-10, residues 100-194)
# Technique: RNA Bind-n-Seq
# Form: RNA
# Sample: in vitro
# Concentration: 365 nM
# Notes: natural RNA segment, single round, ends assumed
# Baseline: no-protein control
# Direction: higher = stronger binding
# All sequences stand within: GGGAGUUCUACAGUCCGACGAUC … UGGAAUUCUCGGGUGCCAA
# Residues (chain): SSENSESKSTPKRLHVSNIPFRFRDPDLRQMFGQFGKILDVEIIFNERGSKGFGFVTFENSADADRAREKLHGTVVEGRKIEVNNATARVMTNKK
Oligonucleotide,RBNS enrichment (R)
CUAUAUCAACUUUGGUAUCUACUUUCCGUUUACUUCAAUCCUUGCCUUUUUGGUCAUUGUUAUAAUGCCAGCUUUAGGACAGAAAGAAUUAUAAGAAAACCAGCAUAAUA,0.364
GUCUGUCAUUGACCUCAUUGUGUCAGCACCUUCCCCUCAAGGAGGCUGACCCUGCCCUGCCAGCUGAGACUGGGAGACGGAGUGGGCUCUGAUCCCAGGGCUUCCAGGAA,0.297
AGAAUACAAGUGCACAGGCGGCAACUCCUUACUUCCAGCAAAAUUGAAACUGCUGUCUCUGAAACUCUUCCUCCAUUAGAGCGCUCCAGUAACCCAUGAAGGCCCACAGC,0.573
CUUUUAUGAAAUCACUACAAUAGAUCUACGUUGGAAAUAACUAUCAAUUUGUAAAGAAAUUUUUAUUAAACACUGUAGAAAAAGUGAAGCUGAGAACUCUUUUGUGCAUU,1.92
GAUAAUUCUGAGAUCAUGGGUGAGGGGUGGUGCAUGUUGAGAUUUAAAUUGGCAUAAAGCUGCAUACUUUUUGUCUAGCUGUUUGAUUUCAUUUUUUAAUAUAGUAUGCC,1.6
AGCCCCACGGGUCCACGAUGUACAAAAUCAUUUUGACCAGCAGGUCUGCAGACCCUUCCCCCACUGCUCAAAGUCCUCCCGUGCUUGGUGUGUGGGACCACCGGCUCCAC,0.207
GAUGGAAAACAUGCAUAGACACAAACCCCCUGCCUUAUGUGGAAAUCAUAGCCCCCUGCCGCUCAGCCUUGUACAUAGACCUAUCCCUCCCUGCCCUGGUCCUCUUCCUG,0.836
GUAUUGCUCUUUCAUCUUAAACACUUUCGAGGAUUUGCAGUGCGUCUAGCACCUAGAUUACAGCCAGGAACAUUGGUUAAGAACUGUUGGAAACAAAACUAAAAGCAAAC,0.221
CACUAUUGGUAAUAAAAUAACAAAUGUUUGUGCAUUUUUAUGUGAAGAUCCUUCUCGUAUUUCAUUUGGAAAGAUGAGCAAGAGGUCUGCUUCCUUCAUUUUACUUCCCC,0.504
AUUAUACUGACUUUAUAUUAAUUAUUAUAAAACUGUGUUUGUACUGAAGAUGUGUUCAAUAUUUGUGGGAGGUUUGUCAUAAUCAGUUGGUGGGGUUCACUGCUCUGUUG,0.587
UUAUGAUAUCUUCCAGUUUUUGCUUUCAUAGGUCAGAGAUCUAUCUUGUGUGUGCGUUAGACUUGAUGAGAAGGUGUGAACUCUGCAGAAAGUCUCUUCUUCAUCACUGA,1.08
ACGUCUUAUUGUGGUAGGAUCAGCCCUCAUUUUGUUGCUUUUGUGAACUUUUUGUAGGGGACGAGAAAGAUCAUUGAAAUUCUGAGAAAACUUCUUUUAAACCUCACCUU,0.626

# Block 4
# Target: Histone acetyltransferase KAT6A, both winged helices, GST fusion (KAT6A, Homo sapiens, UniProt Q92794, residues 1-181)
# Technique: protein binding microarray
# Form: double-stranded DNA, one strand shown
# Sample: in vitro
# Concentration: not given
# Notes: 8-mer, flanks averaged, mean of 2 arrays, mostly near background
# Baseline: not given
# Direction: higher = stronger binding
# Residues (chain): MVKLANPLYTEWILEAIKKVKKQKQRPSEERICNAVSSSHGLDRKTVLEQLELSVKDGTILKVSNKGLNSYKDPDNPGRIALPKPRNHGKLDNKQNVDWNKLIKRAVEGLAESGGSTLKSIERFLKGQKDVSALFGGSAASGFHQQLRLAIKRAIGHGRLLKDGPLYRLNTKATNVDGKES
Oligonucleotide,E-score
AAGTCGTA,-0.14
CAGAACTA,-0.0512
ATCAGTTG,-0.178
CCTACAAC,-0.039
AAATGCCC,-0.159
ACCCGCAC,0.16
ACTACGCG,0.26
ACCATTAA,-0.0829
ATCTATGC,-0.0988
GGTTCAGA,-0.113
CGAAATTA,-0.0492
AAACAGAC,0.0303
TACCCGGA,0.118
ATCGGGGA,0.0536
CGACTCAG,-0.0627
ACACCGAG,0.0549
CCCAGGAA,-0.167
AGGACGGG,0.116
CCCAGGAG,-0.233
GAGACTGA,-0.122
AACAGACT,-0.0755
CCGCCCCC,0.0681
AAGCATTC,0.00208
CCTATATA,-0.0608
GCATGAGA,-0.0499

# Block 5
# Target: Protein C-ets-1 (ETS1, Homo sapiens, UniProt P14921, residues 1-441, Y397A, full length assumed)
# Technique: protein-binding microarray
# Form: double-stranded DNA, one strand shown
# Sample: in vitro
# Concentration: not given
# Notes: k-mer, scored over probes, only values ≥0.25
# Direction: higher = stronger binding
# Target sequence (chain): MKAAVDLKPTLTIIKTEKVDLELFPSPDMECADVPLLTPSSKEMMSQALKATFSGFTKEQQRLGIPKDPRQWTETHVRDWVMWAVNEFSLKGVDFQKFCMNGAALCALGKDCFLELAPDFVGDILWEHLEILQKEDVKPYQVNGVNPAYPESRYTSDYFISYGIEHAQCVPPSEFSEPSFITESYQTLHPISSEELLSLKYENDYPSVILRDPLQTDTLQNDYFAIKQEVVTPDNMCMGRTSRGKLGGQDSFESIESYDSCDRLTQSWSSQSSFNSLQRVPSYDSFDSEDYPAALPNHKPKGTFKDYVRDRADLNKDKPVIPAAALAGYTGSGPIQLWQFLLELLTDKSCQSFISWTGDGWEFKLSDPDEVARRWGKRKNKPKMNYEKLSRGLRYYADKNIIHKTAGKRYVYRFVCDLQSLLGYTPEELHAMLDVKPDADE
Oligonucleotide,E-score
CACTGTCA,0.311
CTGGCAAA,0.312
ACTACGGA,0.28
CGCGCGTA,0.299
CATATGGG,0.257
CTACAAAC,0.296
CAAATTGC,0.294
ATACAAAC,0.316
CACGGCAA,0.265
ATTGCCAG,0.373
GGGTGCAA,0.289
CGTGACAA,0.315
CTGCGACA,0.284
CGCCAAAC,0.392
GACAAAGA,0.329
GCCGGATA,0.315
CTTTTGTC,0.354
CGCATATC,0.279
GACCCGCC,0.253
GAATTTCC,0.272
CTGTCAAC,0.29
GACCGACA,0.256
CCAATTTA,0.252
TAGCAAAA,0.264

# A few entries again (block 4):
Oligonucleotide,E-score
ACCCGCAC,0.16
CCCAGGAA,-0.167
GCATGAGA,-0.0499
ATCGGGGA,0.0536
CCTATATA,-0.0608
CGACTCAG,-0.0627
AAGTCGTA,-0.14
GAGACTGA,-0.122
GGTTCAGA,-0.113
ACCATTAA,-0.0829
ATCAGTTG,-0.178
AAACAGAC,0.0303
